Assay results collected from several papers.
Protocols differ between the studies behind these lines. ± marks the error that the study gave. ≈ marks a conversion by molar mass, not a printed value.

Structure (SMILES) | organism | assay | test system | conditions | how to read | quantity | value
CN(C)CCNC(=O)/C=C/C(Cc1ccccc1)Nc1ccnc2cc(Cl)ccc12 (stereo not shown) | Plasmodium berghei | – | NAT atovaquone-resistant, ICR mouse infected | 10 mg/kg, 2 days post infection | – | body weight | 26.6 ± 1.43 g
CN1CC(=O)N=C1N.C[C@H](CCC(=O)O)[C@H]1CC[C@H]2[C@@H]3[C@@H](O)C[C@@H]4C[C@H](O)CC[C@]4(C)[C@H]3CC[C@]12C | Candida albicans | – | TISTR 5554 | 1 mg per disc, 18 to 24 h, 37 °C, 6 mm disc | – | inhibition zone | inactive
CC[C@H](C)[C@H](NC(=O)[C@H](CCCCN)NC(=O)[C@H](CCCCN)NC(=O)[C@H](CC(C)C)NC(=O)[C@H](CCCCN)NC(=O)[C@H](CCC(=O)O)NC(=O)[C@H](CCCCN)NC(=O)[C@@H](NC(=O)[C@H](CCCCN)NC(=O)[C@H](CC(N)=O)NC(=O)[C@H](CCCNC(=N)N)NC(=O)[C@H](Cc1ccccc1)NC(=O)[C@H](CCCCN)NC(=O)[C@H](CCCNC(=N)N)NC(=O)[C@H](CC(C)C)NC(=O)[C@H](CCCNC(=N)N)NC(=O)[C@H](CCCCN)NC(=O)[C@H](CCCNC(=N)N)NC(=O)[C@@H](N)CC(C)C)[C@@H](C)CC)C(=O)NCC(=O)N[C@@H](CCC(N)=O)C(=O)N[C@@H](CCCCN)C(=O)N[C@H](C(=O)N[C@@H](CCC(N)=O)C(=O)NCC(=O)N[C@@H](Cc1ccccc1)C(=O)N[C@H](C(=O)N1CCC[C@H]1C(=O)N[C@@H](CCCCN)C(=O)N[C@@H](CC(C)C)C(=O)O)C(C)C)[C@@H](C)CC | Bacillus megaterium | inhibition zone | CGMCC 1.046 | – | – | lethal concentration | 1.46 µM
CC(=O)N[C@H](CCCCN)C(=O)N[C@H](CC(C)C)C(=O)N[C@H](CCCCN)C(=O)N[C@H](CO)C(=O)N[C@H](CC(C)C)C(=O)N[C@H](CC(C)C)C(=O)N[C@H](CCCCN)C(=O)N[C@@H](C(=O)N[C@H](CC(C)C)C(=O)N[C@H](CO)C(=O)N[C@H](CCCCN)C(=O)N[C@H](C)C(=O)N[C@H](CCCCN)C(=O)N[C@H](CCCCN)C(=O)N[C@H](CCCCN)C(=O)N[C@H](CCCCN)C(=O)N[C@H](CC(C)C)C(=O)N[C@H](CCCCN)C(=O)N[C@@H](C(=O)N[C@H](CC(C)C)C(=O)N[C@H](CC(C)C)C(=O)N[C@H](CCCCN)C(=O)N[C@H](C)C(=O)N[C@H](CC(C)C)C(=O)N[C@H](CO)C(=O)N[C@H](CCCCN)C(N)=O)[C@H](C)O)[C@H](C)O | Acinetobacter baumannii | – | 11 isolates | – | reference: HC50 over geometric mean MIC | therapeutic index | 3360
CC(=NNC(=N)N)c1nnn(-c2ccc(C#CC3(O)CCCCC3)cc2)c1C | Neisseria gonorrhoeae | – | WI-38, 181 | – | reference: WI-38 IC50 over MIC | selectivity index | 2.19
CC[C@H](C)[C@H](NC(=O)[C@H](CCCCN)NC(=O)[C@H](CCCCN)NC(=O)[C@H](CC(C)C)NC(=O)[C@H](CCCCN)NC(=O)[C@H](CCC(=O)O)NC(=O)[C@H](CCCCN)NC(=O)[C@@H](NC(=O)[C@H](CCCCN)NC(=O)[C@H](CC(N)=O)NC(=O)[C@H](CCCNC(=N)N)NC(=O)[C@H](Cc1ccccc1)NC(=O)[C@H](CCCCN)NC(=O)[C@H](CCCNC(=N)N)NC(=O)[C@H](CC(C)C)NC(=O)[C@H](CCCNC(=N)N)NC(=O)[C@H](CCCCN)NC(=O)[C@H](CCCNC(=N)N)NC(=O)[C@H](CC(C)C)NC(=O)[C@@H](N)CCCNC(=N)N)[C@@H](C)CC)C(=O)NCC(=O)N[C@@H](CCC(N)=O)C(=O)N[C@@H](CCCCN)C(=O)N[C@H](C(=O)N[C@@H](CCC(N)=O)C(=O)NCC(=O)N[C@@H](Cc1ccccc1)C(=O)N[C@H](C(=O)N1CCC[C@H]1C(=O)N[C@@H](CCCCN)C(=O)N[C@@H](CC(C)C)C(=O)N[C@@H](CCC(N)=O)C(=O)N1CCC[C@H]1C(=O)N[C@@H](CO)C(=O)N[C@@H](CCCCN)C(=O)N[C@@H](CCC(N)=O)C(=O)N[C@@H](CO)C(=O)O)C(C)C)[C@@H](C)CC | Micrococcus luteus | inhibition zone | CGMCC 1.029 | – | – | lethal concentration | 1.5 µM
O=C(NCc1ccc(F)cc1)c1nc(NCCO)c2cccnc2c1O | Human betaherpesvirus 5 | viral replication, inhibitor | HFF | 10 µM | – | inhibition | 20%
CC(C)C[C@H](NC(=O)[C@H](CC(=O)O)NC(=O)[C@H](CC(C)C)NC(=O)[C@H](CC(=O)O)NC(=O)CNC(=O)[C@@H]1CCCN1C(=O)[C@H](CCCCN)NC(=O)[C@H](CC(C)C)NC(=O)[C@H](Cc1c[nH]c2ccccc12)NC(=O)[C@@H]1CCCN1)C(=O)O | dengue virus 2 | – | LLC-MK2, New Guinea C | 500 µM | reference: untreated | plaque reduction | 40.6 ± 24.8%
Nc1ccn(C[C@@H](CO)OCP(=O)(O)OCCCS(=O)(=O)CCCCCCCCCCCCCC2CCC2)c(=O)n1 | human adenovirus 5 | cytopathic effect | Adenoid 75 | – | reference: CC50 over EC50 | selectivity index | 74
CC[C@H](C)[C@H](NC(=O)[C@H](CCCCN)NC(=O)[C@H](CCCCN)NC(=O)[C@H](CC(C)C)NC(=O)[C@H](CCCCN)NC(=O)[C@H](CCC(=O)O)NC(=O)[C@H](CCCCN)NC(=O)[C@@H](NC(=O)[C@H](CCCCN)NC(=O)[C@H](CC(N)=O)NC(=O)[C@H](CCCNC(=N)N)NC(=O)[C@H](Cc1ccccc1)NC(=O)[C@H](CCCCN)NC(=O)[C@H](CCCNC(=N)N)NC(=O)[C@H](CC(C)C)NC(=O)[C@H](CCCNC(=N)N)NC(=O)[C@H](CCCCN)NC(=O)[C@H](CCCNC(=N)N)NC(=O)[C@H](CC(C)C)NC(=O)[C@@H](N)CC(C)C)[C@@H](C)CC)C(=O)NCC(=O)N[C@@H](CCC(N)=O)C(=O)N[C@@H](CCCCN)C(=O)N[C@H](C(=O)N[C@@H](CCC(N)=O)C(=O)NCC(=O)N[C@@H](Cc1ccccc1)C(=O)N[C@H](C(=O)N1CCC[C@H]1C(=O)N[C@@H](CCCCN)C(=O)N[C@@H](CC(C)C)C(=O)N[C@H](C(=O)N1CCC[C@H]1C(=O)N[C@@H](CCCNC(=N)N)C(=O)N[C@H](C(=O)N[C@@H](CCC(=O)O)C(=O)N[C@@H](CO)C(=O)O)[C@@H](C)O)C(C)C)C(C)C)[C@@H](C)CC | Salmonella | inhibition zone | ZQ.17N | LB agar, overnight | – | lethal concentration | 1.95 µM
O=C1C2=C(Nc3ccccc3SC2c2ccsc2)c2ccccc21 (racemic) | Plasmodium falciparum | – | Dd2 expressing yeast DHOD | together with: 0.5 nM proguanil | reference: transgenic over parental Dd2 | fold resistance | 0.96
CON(C(=O)c1cn(C)nc1C(F)F)C(C)Cc1c(Cl)cc(Cl)cc1Cl (stereo not shown) | Alternaria solani | – | – | 1.56 µg/mL | – | inhibition | 82.7%
O=C(Cn1ccc(=O)c2ccccc21)N/N=C/c1cc(Br)c(O)c(Br)c1 | Alternaria solani | microbial growth | – | 50 µg/mL | – | inhibition | 30.8%
CCCCc1ccc(-c2nc(C)c(C(C)=NNC(=N)N)s2)cc1 | Staphylococcus aureus | – | VRS5 VRSA | – | – | MBC | 1.3 µg/mL (≈ 3.95 µM)
CCCCCCOP(=O)(O)Oc1c2c(c(OP(=O)(O)OCCCCCC)c3c1C1CC3c3cc4c(cc31)C1CC4c3ccccc31)C1CC2c2cc3c(cc21)C1CC3c2ccccc21 | measles virus | viral infection, flow cytometry | A549, vaccine strain GFP | 2 days, virus pre-incubated 30 min 37 °C | – | IC50 | 4.6 µM
CN[C@@H]1[C@H](O)[C@H](NC)[C@H]2O[C@]3(O)[C@H](O[C@@H]2[C@H]1O)O[C@H](C)C[C@]3(O)CNCc1ccc(OC(F)(F)F)cc1 | Neisseria gonorrhoeae | – | ATCC 49226 | 40 µg per disc | – | inhibition zone diameter | 8.2 to 8.8 mm
CC[C@H](C)[C@H](NC(=O)[C@H](CCCCN)NC(=O)[C@H](CCCCN)NC(=O)[C@H](CC(C)C)NC(=O)[C@H](CCCCN)NC(=O)[C@H](CCC(=O)O)NC(=O)[C@H](CCCCN)NC(=O)[C@@H](NC(=O)[C@H](CCCCN)NC(=O)[C@H](CC(N)=O)NC(=O)[C@H](CCCNC(=N)N)NC(=O)[C@H](Cc1ccccc1)NC(=O)[C@H](CCCCN)NC(=O)[C@H](CCCNC(=N)N)NC(=O)[C@H](CC(C)C)NC(=O)[C@H](CCCNC(=N)N)NC(=O)[C@H](CCCCN)NC(=O)[C@H](CCCNC(=N)N)NC(=O)[C@H](CC(C)C)NC(=O)CN)[C@@H](C)CC)C(=O)NCC(=O)N[C@@H](CCC(N)=O)C(=O)N[C@@H](CCCCN)C(=O)N[C@H](C(=O)N[C@@H](CCC(N)=O)C(=O)NCC(=O)N[C@@H](Cc1ccccc1)C(=O)N[C@H](C(=O)N1CCC[C@H]1C(=O)N[C@@H](CCCCN)C(=O)N[C@@H](CC(C)C)C(=O)N[C@@H](C)C(=O)N1CCC[C@H]1C(=O)N[C@@H](CCCNC(=N)N)C(=O)N[C@H](C(=O)N[C@@H](CC(=O)O)C(=O)N[C@@H](Cc1ccc(O)cc1)C(=O)O)[C@@H](C)O)C(C)C)[C@@H](C)CC | Pseudomonas aeruginosa | inhibition zone method | 11082603, LB 0.8% agar with 154 mM NaCl | overnight, 37 °C | – | lethal concentration | 2.19 µM
CN[C@@H]1[C@H](O)[C@H](NC)[C@H]2O[C@]3(O)[C@H](O[C@@H]2[C@H]1O)O[C@H](C)C[C@@]3(O)CNCc1ccccc1 | Neisseria gonorrhoeae | – | ATCC 49226 | 40 µg per disc | – | inhibition zone diameter | 15.5 to 16 mm
CC[C@H](C)[C@H](NC(=O)CNC(=O)[C@H](CC(N)=O)NC(=O)[C@H](CCCNC(=N)N)NC(=O)[C@H](CS)NC(=O)[C@H](CCCNC(=N)N)NC(=O)CNC(=O)CNC(=O)[C@H](CCCCN)NC(=O)[C@H](Cc1ccc(O)cc1)NC(=O)[C@H](CCCNC(=N)N)NC(=O)[C@H](CCCCN)NC(=O)[C@@H](NC(=O)[C@H](CC(C)C)NC(=O)[C@H](CS)NC(=O)[C@H](Cc1c[nH]cn1)NC(=O)[C@H](C)NC(=O)[C@H](C)NC(=O)[C@H](CS)NC(=O)[C@H](C)NC(=O)[C@H](CO)NC(=O)[C@H](Cc1c[nH]cn1)NC(=O)[C@H](CC(N)=O)NC(=O)[C@H](CC(C)C)NC(=O)[C@H](CO)NC(=O)CNC(=O)[C@H](Cc1c[nH]c2ccccc12)NC(=O)[C@@H]1CCCN1C(=O)[C@@H](NC(=O)[C@H](CO)NC(=O)[C@H](C)NC(=O)[C@H](CO)NC(=O)[C@H](CC(C)C)NC(=O)[C@H](CC(C)C)NC(=O)[C@H](CC(=O)O)NC(=O)[C@H](CS)NC(=O)[C@@H](NC(=O)[C@H](C)N)[C@@H](C)O)[C@@H](C)O)[C@@H](C)O)C(=O)N[C@@H](CS)C(=O)N[C@@H](CCCNC(=N)N)C(=O)N[C@@H](CS)C(=O)N[C@@H](CCCNC(=N)N)C(=O)N[C@@H](CCCNC(=N)N)C(N)=O | Candida albicans | – | ATCC 90028 | – | – | antifungal concentration | > 19 µg/mL

For quick reference, copied from above:
Structure (SMILES) | organism | assay | test system | conditions | how to read | quantity | value
CN1CC(=O)N=C1N.C[C@H](CCC(=O)O)[C@H]1CC[C@H]2[C@@H]3[C@@H](O)C[C@@H]4C[C@H](O)CC[C@]4(C)[C@H]3CC[C@]12C | Candida albicans | – | TISTR 5554 | 1 mg per disc, 18 to 24 h, 37 °C, 6 mm disc | – | inhibition zone | inactive
